Results gathered from unrelated publications.
Numbered parts are unrelated; each lists some results of a single study. Changes are numbered by the printed parent chain.

Block 1 — method: DHFR PCA, deep sequencing; matrix: yeast; with: (+)-ABA 58 µM; relative to: wild-type fitted maximum; reading: higher = stronger binding
Target: ABI1, truncated, D143A, DHFR fusion (Arabidopsis thaliana)
Notes: methotrexate growth selection, single substitutions
Parent: PYL1, truncated, DHFR fusion (Arabidopsis thaliana); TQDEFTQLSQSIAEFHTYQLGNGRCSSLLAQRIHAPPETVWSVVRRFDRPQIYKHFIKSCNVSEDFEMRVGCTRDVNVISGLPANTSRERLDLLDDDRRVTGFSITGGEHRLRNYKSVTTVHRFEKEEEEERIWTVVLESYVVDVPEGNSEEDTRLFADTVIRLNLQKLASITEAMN; partner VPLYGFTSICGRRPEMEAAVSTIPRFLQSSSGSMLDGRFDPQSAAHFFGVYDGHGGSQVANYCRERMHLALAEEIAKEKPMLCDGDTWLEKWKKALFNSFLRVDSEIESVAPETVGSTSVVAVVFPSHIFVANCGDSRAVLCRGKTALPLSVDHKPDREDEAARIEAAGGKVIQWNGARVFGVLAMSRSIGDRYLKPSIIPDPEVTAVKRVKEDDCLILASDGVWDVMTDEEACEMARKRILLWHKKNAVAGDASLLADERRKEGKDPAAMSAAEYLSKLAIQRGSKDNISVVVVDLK
Change | relative binding score
D153A | 30.9%
D97M | 86.6%
R88Y | 78%
L164F | 81.8%
Q51D | 61.5%
V136F | 82.9%
N22M | 89.6%
L29V | 90.4%
R98F | 43%

Block 2 — method: protein-binding microarray; molecule type: double-stranded DNA, one strand shown; matrix: in vitro; tested at: 2540 nM top; notes: 60-bp whole probe; with: salmon DNA 0.4 mg/ml; relative to: random background probes; reading: higher = stronger binding; constant ends, left off below: GCCTAGCAC … GTCTTGATTCGCTTGACGCTGCTG
Target: Interferon regulatory factor 3, full length, phosphomimetic (IRF3, Homo sapiens, UniProt Q14653, residues 1-427, S386D/S396D/S398D/S402D/T404D/S405D)
Sequence of UniProt Q14653 (whole entry, unmodified, looked up): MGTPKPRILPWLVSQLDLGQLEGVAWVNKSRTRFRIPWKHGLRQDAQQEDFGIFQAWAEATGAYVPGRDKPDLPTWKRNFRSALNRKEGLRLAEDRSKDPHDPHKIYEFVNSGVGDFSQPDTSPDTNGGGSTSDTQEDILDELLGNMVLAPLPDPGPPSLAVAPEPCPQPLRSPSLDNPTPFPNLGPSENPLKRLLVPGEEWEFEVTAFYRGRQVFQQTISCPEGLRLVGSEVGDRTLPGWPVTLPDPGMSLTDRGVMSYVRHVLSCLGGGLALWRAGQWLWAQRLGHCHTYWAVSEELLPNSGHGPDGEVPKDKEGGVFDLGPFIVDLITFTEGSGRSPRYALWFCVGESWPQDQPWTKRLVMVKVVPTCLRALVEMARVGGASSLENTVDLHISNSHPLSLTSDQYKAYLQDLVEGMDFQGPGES
Oligonucleotide | fitted relative affinity [z-score]
TTAGGTATCGGGTATCGCTTAGTGCTA | 1.4
AAAAATTAGTGTTTCCCCTAGTGCTAG | 1.1
TTAGGCCTGGACACTGGGTTAGTGCTA | -1.21
GACGAACTGGGGTATCGAGTCGTGCTA | -0.281
TTAGGTCGCCTACTGCTTTAGTGCTAG | -0.181
TTAGGTTTGCTTTTCCTTTAGTGCTAG | 2.84
TTACGTTTCGGTATCGGTTAGTGCTAG | 7.62
GACGGTTACCTTATCCTGACGTGCTAG | 3.97
TTAGCTTCCCTTTTCCTTTAGTGCTAG | 4.71
GACGAACCGAGTTTCGAGACGTGCTAG | 1.47
GACGGAATGCTTATCCTGACGTGCTAG | 0.00369
CAGGAAATCAACTTTTTTTAAGTGCTA | -0.0836
GACGGTTTCGACGCTGGGGACGTGCTA | 2
TTGGTTCTCAGCTTGGGGCAGTGCTAG | -0.0041
GGCCAAACAGTATTAAACTCGTGCTAG | -0.285
TTAGGTATCGACCCTGGGTTAGTGCTA | -0.206

Block 3 — target: BATF, bZIP domain (human); method: DHFR protein complementation; matrix: yeast; relative to: wild-type JUN-FOS pair; reading: higher = stronger binding
Notes: single substitutions, most at no-binding floor
Parent: JUN, bZIP domain (human); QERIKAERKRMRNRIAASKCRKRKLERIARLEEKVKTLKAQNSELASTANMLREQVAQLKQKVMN; partner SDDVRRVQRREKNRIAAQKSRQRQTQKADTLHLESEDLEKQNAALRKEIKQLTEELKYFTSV
Change | binding fitness [natural log]
L31K | -0.279
L45G | -1.27
A29R | -0.078
A40R | 0.043
N42D | -1.1
V35S | -0.574
L31S | -0.222
S43Y | -0.088
E54N | -0.0449

Block 4 — method: protein binding microarray; molecule type: double-stranded DNA, one strand shown; matrix: in vitro; tested at: not given; relative to: not given; reading: higher = stronger binding
Target: Histone acetyltransferase KAT6A, winged helix 2, GST fusion (KAT6A, Homo sapiens, UniProt Q92794, residues 85-181)
Notes: 8-mer, flanks averaged, mean of 2 arrays, mostly near background
Construct (chain): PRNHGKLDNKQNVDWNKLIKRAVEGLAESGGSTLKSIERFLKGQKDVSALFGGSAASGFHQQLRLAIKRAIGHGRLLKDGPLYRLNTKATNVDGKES
Oligonucleotide | E-score
CGTTTGAC | -0.0468
GCTGTCCC | 0.191
AAATATGG | -0.26
AGAATGAA | 0.126
AAGTGCAT | 0.0175
CAGGACTG | -0.151
CGCGATAC | 0.0197
AGTTACCA | -0.006
CAGTCTCA | -0.00024
CCGATTGA | -0.0578
AACGCTTC | -0.0652
CTTAGCTA | -0.174
CTGTAATA | 0.0677
GCTCAAGC | 0.11
GACTAAGC | 0.03
GCTACAGC | 0.0583
TCCTACCA | -0.0271
AGCCTAGC | 0.0574
AATTTGGG | -0.0723
CGATCCCA | 0.0023
AAAGTATT | -0.0443
GTGATCTA | 0.134
ATCCCCAT | -0.126

Block 5 — target: UBE2T UBC core domain (UniProt Q9NPD8); method: yeast two-hybrid; matrix: yeast; notes: mostly zero background; relative to: not given; reading: higher = stronger interaction
B1: RBCK1 RING domain (UniProt Q9BYM8); chain SLVLNTEPAECPVCYSVLAPGEAVVLRECLHTFCRECLQGTIRNSQEAEVSCPFIDNTYSCSGKLLEREIK
B2: TRIM62 RING domain (UniProt Q9BVG3); chain MACSLKDELLCSICLSIYQDPVSLGCEHYFCRRCITEHWVRQEAQGARDCPECRRTFAEPALAP
B3: UBOX5 RING domain (UniProt O94941); chain EQPGSILGPECASCKRVFSPYFKKEPVYQLPCGHLLCRPCLGEKQRSLPMTCTACQRPVASQDVLR
B4: SH3RF1 RING domain (UniProt Q7Z6J0); chain DESALLDLLECPVCLERLDASAKVLPCQHTFCKRCLLGIVGSRNELRCPECRTLVGSGVEEL
B5: RNF121 RING domain (UniProt Q9H920); chain MPTKHLSDSVCAVCGQQIFVDVSEEGIIENTYRLSCNHVFHEFCIRGWCIVGKKQTCPYCKEKVDLKRMFS
B6: ZMIZ2 RING domain (UniProt Q8NF64); chain GTIPGTPGPNGEDGVEQTAIKVSLKCPITFRRIQLPARGHDCRHIQCFDLESYLQLNCERGTWRCPVCNKTALLEGLEVDQYMLGILIYIQNSDYEEITIDPTCSWK
Target sequence (chain): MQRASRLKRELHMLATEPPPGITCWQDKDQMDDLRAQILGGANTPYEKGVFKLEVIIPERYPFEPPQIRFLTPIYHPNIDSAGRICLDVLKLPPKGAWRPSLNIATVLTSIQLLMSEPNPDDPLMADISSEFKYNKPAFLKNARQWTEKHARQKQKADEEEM
Sequence | lacZ reporter activity
B1 (RBCK1 RING domain) | 0
B2 (TRIM62 RING domain) | 0
B3 (UBOX5 RING domain) | 0
B4 (SH3RF1 RING domain) | 0
FDGDVDPDLKCALCHKVLEDPLTTPCGHVFCAGCVLPWVVQEGSCPARCRGRLSAKELN (PDZRN3 RING domain (UniProt Q9UPQ7)) | 0
B5 (RNF121 RING domain) | 0
B6 (ZMIZ2 RING domain) | 0
NLSELTPYILCSICKGYLIDATTITECLHTFCKSCIVRHFYYSNRCPKCNIVVHQTQPLY (PCGF6 RING domain (UniProt Q9BYE7)) | 0
YQNEVDDDLVCHICLQPLLQPLDTPCGHTFCYKCLRNFLQEKDFCPLDRKRLHFKLCKK (LNX2 RING domain (UniProt Q8N448)) | 0
GSDDEEIPFKCFICRQSFQNPVVTKCRHYFCESCALQHFRTTPRCYVCDQQTNGVFNPA (RNF113A RING domain (UniProt O15541)) | 0

Block 6 — method: RNA Bind-n-Seq; molecule type: RNA; matrix: in vitro; tested at: 365 nM; relative to: no-protein control; reading: higher = stronger binding
Target: RNA binding protein fox-1 homolog 2, RRM domain, GST-SBP tag (RBFOX2, Homo sapiens, UniProt O43251-10, residues 100-194)
Notes: natural RNA segment, single round, ends assumed
Constant ends, left off below: GGGAGUUCUACAGUCCGACGAUC … UGGAAUUCUCGGGUGCCAA
Construct (chain): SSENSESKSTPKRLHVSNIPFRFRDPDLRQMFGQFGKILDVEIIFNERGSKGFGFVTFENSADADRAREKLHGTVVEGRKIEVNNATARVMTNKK
Oligonucleotide | RBNS enrichment (R)
GCCCUGUCCUUCUCAUGGACUCCAUUCAUGUCUGCUCCUCACUAACAGACUUGGGUUUUCCCAAUACCUGACUAUACUUUUGUGAUUCAGUUCAGCUUAAAGAACGCCAG | 0.635
UCUUAUGGGCAAGCCACCAUCCCACUCUCGUCUCCCUGAGCUGUCUGGUUCUGCGGACCCAGGAAGGGCCAGGCUGGGGCCCUGCUUGUGUUUAUCCUCGGCUGCUGUCU | 0.586
UUUAUAAACUCAAAUUGGCACCUACUGAAUUAAAAUACAUAAAAUCAUUUAAAUAUAAUUCAGCAUAUGGGAAGUAACAUUGCACUAAUAUGGAAAUCACUGCCAGAGAC | 0.659
UUGAUUUGGAUCCUGAAACGGAACAAGUGAAUGGAUUGUUUAAGCAGGUCUUCCAUCUCCAAGAGGCCACUCUGUCCGGCCAGUGUCUGUUCAGGCCCACUGAAGAAGUG | 0.315
UUCCAAGGCUGGAAAGACACAGUCAUGGAUGUACUGUCUGAGCAUAGAGAACCCGGGCUUGAGUGAGAAGAGCUUGCACAGCCAGUGAGACACAUUGCCUUCUGCAGCUG | 0.233
GCGUAACUAUUUUUGACCUAGUCAGUUUUUAAACAAUGUGCAUUUGAAGGAGUUAAUUAAAAGAGAGCCAAUAAAAUGAUUUUACUCAUUCAGUAUCUGAGUACUGGAAG | 0.601
GGCUGGAGGGAAAAGGAGUGGCUCCUAGAGUCCUGGGGGUCACCCCAGGGCUUUUGCUGACUCUGGGAAAGAGUCUGGAGACCACAUUUGGUUCUCGAACCAUCUACCUG | 0.3
AGAGUAGAGUCACUGGAACACUAAUGAGGAAACUGCACUGUUUUAUUUUAAUUCAGUUGUUAGUGUGUCUUAGUGUGUGCAAUUUUUUUUCUUACUAAUAUCCAUGGUUU | 0.412
AGCUGUUGCAAUCAAGGCCAUGGCAAAAUAACCGGCUUCCAGGGUGGCGGUGGUGGCAGCAGUGAUCCAUGAGCCUACAGAGGCCCCUCCCCCAGCCAGGUUCUGCUCUG | 0.507
AAGCUUCACCAACCAAAUCAUCCUUGAGGAUGCUGCCAAAAGGCCCCCAGGACUCCCGCCCACACUCCUUUGGGCUGCUGCCUGCCUGGCUAGCUCUGUCCAGAUAGGAC | 0.447
UUCUGUUGUCUUAAGGGAUGCCCCCUUGUGAUUUUGGUCAACUGAAUGAAAAAGAAAAGAUAGCCUUGGACUUUUUUUUCAUGGGAGGUUUGGAGGUCAAGCAUGUAGAA | 22.4
UGUUUCUUUCUUUUUCAUUUUGUGAAAAACUCCAUGUUAGUCCUCUUAGAUGACUGCUUAUUUAUGUGUAACAUAAAUCCCACAUAUUCUAAUGACAACUUCUUUAAUCC | 0.339

Block 7 — method: universal PBM; molecule type: double-stranded DNA, one strand shown; matrix: in vitro; tested at: 600 nM; reading: higher = stronger binding
Target: Sal-like protein 4, full length isoform A (SALL4, Homo sapiens, UniProt Q9UJQ4, residues 1-1053)
Sequence of UniProt Q9UJQ4 (whole entry, looked up): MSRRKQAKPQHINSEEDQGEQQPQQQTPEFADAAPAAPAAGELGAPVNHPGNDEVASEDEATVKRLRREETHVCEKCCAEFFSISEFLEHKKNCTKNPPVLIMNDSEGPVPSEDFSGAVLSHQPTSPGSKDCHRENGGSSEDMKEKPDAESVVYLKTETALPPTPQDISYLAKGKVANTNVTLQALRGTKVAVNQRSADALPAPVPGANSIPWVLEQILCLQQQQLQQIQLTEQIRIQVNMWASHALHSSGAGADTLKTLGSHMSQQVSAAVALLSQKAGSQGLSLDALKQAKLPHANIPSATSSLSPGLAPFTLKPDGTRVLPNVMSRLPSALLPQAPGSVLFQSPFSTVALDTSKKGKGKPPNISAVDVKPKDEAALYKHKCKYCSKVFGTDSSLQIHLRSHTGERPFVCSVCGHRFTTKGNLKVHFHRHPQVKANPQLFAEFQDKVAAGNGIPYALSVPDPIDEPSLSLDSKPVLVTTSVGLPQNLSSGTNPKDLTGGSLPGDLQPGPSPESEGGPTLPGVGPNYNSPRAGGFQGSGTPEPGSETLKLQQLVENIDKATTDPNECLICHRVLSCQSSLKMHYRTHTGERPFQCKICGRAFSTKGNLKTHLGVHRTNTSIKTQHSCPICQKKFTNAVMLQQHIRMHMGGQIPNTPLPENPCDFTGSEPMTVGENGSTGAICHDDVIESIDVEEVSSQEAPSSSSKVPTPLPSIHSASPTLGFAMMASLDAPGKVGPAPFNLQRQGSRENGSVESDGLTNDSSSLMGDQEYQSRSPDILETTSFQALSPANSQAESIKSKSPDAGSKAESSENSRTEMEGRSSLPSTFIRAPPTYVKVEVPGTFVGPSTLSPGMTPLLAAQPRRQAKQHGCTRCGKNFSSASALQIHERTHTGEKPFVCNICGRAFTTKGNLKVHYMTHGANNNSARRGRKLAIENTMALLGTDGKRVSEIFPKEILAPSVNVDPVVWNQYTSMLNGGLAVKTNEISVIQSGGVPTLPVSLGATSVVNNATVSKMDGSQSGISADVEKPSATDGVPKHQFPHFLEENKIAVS
Notes: 8-mer, flanks averaged, mean of replicates
Oligonucleotide | E-score
ACTGACAT | 0.161
GAGCAAGA | -0.0222
AAGGGTAA | 0.065
ACAATACC | 0.205
AAGTCTGG | -0.148
GACCCAAC | -0.169
ACATGGCG | -0.196
GGAGAAGA | -0.0121
GGTTAACA | 0.233
ATCAGAAC | 0.0535
CCTCGTCC | -0.216
CATTCATC | 0.121
ACAGCTCC | -0.124
ATCAAATG | 0.131
GCATAATA | 0.407
ACGATCGA | 0.0669
GCTAAGAC | -0.0196

Repeated from above (block 4):
Oligonucleotide | E-score
AGAATGAA | 0.126
AAGTGCAT | 0.0175
CAGGACTG | -0.151
CGCGATAC | 0.0197
AGTTACCA | -0.006
CAGTCTCA | -0.00024
CCGATTGA | -0.0578
AACGCTTC | -0.0652
CTTAGCTA | -0.174
CTGTAATA | 0.0677
GCTCAAGC | 0.11
GACTAAGC | 0.03
